Results from different studies.
± marks the error that the study gave.
ache: Acetylcholinesterase (ache, Electrophorus electricus, UniProt O42275)
Sequence of UniProt O42275 (whole entry, looked up): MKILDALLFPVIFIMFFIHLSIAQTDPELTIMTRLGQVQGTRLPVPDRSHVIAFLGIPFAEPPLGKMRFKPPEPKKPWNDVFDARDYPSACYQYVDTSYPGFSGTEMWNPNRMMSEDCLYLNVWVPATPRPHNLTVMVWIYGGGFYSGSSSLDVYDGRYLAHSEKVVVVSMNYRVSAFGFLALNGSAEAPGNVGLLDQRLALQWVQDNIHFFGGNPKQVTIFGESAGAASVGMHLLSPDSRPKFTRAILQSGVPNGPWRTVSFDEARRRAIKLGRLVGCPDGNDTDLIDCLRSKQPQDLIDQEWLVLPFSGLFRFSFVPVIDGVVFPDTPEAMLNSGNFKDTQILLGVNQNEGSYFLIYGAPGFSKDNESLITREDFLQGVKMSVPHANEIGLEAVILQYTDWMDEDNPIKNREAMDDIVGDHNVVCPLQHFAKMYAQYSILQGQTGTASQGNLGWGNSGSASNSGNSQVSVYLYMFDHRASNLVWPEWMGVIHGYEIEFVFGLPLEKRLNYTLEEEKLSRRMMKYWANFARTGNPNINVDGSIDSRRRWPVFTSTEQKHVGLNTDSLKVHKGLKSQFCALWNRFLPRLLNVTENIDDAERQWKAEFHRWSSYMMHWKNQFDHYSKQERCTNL
Sequence of UniProt Q32ZE1 (whole entry, looked up): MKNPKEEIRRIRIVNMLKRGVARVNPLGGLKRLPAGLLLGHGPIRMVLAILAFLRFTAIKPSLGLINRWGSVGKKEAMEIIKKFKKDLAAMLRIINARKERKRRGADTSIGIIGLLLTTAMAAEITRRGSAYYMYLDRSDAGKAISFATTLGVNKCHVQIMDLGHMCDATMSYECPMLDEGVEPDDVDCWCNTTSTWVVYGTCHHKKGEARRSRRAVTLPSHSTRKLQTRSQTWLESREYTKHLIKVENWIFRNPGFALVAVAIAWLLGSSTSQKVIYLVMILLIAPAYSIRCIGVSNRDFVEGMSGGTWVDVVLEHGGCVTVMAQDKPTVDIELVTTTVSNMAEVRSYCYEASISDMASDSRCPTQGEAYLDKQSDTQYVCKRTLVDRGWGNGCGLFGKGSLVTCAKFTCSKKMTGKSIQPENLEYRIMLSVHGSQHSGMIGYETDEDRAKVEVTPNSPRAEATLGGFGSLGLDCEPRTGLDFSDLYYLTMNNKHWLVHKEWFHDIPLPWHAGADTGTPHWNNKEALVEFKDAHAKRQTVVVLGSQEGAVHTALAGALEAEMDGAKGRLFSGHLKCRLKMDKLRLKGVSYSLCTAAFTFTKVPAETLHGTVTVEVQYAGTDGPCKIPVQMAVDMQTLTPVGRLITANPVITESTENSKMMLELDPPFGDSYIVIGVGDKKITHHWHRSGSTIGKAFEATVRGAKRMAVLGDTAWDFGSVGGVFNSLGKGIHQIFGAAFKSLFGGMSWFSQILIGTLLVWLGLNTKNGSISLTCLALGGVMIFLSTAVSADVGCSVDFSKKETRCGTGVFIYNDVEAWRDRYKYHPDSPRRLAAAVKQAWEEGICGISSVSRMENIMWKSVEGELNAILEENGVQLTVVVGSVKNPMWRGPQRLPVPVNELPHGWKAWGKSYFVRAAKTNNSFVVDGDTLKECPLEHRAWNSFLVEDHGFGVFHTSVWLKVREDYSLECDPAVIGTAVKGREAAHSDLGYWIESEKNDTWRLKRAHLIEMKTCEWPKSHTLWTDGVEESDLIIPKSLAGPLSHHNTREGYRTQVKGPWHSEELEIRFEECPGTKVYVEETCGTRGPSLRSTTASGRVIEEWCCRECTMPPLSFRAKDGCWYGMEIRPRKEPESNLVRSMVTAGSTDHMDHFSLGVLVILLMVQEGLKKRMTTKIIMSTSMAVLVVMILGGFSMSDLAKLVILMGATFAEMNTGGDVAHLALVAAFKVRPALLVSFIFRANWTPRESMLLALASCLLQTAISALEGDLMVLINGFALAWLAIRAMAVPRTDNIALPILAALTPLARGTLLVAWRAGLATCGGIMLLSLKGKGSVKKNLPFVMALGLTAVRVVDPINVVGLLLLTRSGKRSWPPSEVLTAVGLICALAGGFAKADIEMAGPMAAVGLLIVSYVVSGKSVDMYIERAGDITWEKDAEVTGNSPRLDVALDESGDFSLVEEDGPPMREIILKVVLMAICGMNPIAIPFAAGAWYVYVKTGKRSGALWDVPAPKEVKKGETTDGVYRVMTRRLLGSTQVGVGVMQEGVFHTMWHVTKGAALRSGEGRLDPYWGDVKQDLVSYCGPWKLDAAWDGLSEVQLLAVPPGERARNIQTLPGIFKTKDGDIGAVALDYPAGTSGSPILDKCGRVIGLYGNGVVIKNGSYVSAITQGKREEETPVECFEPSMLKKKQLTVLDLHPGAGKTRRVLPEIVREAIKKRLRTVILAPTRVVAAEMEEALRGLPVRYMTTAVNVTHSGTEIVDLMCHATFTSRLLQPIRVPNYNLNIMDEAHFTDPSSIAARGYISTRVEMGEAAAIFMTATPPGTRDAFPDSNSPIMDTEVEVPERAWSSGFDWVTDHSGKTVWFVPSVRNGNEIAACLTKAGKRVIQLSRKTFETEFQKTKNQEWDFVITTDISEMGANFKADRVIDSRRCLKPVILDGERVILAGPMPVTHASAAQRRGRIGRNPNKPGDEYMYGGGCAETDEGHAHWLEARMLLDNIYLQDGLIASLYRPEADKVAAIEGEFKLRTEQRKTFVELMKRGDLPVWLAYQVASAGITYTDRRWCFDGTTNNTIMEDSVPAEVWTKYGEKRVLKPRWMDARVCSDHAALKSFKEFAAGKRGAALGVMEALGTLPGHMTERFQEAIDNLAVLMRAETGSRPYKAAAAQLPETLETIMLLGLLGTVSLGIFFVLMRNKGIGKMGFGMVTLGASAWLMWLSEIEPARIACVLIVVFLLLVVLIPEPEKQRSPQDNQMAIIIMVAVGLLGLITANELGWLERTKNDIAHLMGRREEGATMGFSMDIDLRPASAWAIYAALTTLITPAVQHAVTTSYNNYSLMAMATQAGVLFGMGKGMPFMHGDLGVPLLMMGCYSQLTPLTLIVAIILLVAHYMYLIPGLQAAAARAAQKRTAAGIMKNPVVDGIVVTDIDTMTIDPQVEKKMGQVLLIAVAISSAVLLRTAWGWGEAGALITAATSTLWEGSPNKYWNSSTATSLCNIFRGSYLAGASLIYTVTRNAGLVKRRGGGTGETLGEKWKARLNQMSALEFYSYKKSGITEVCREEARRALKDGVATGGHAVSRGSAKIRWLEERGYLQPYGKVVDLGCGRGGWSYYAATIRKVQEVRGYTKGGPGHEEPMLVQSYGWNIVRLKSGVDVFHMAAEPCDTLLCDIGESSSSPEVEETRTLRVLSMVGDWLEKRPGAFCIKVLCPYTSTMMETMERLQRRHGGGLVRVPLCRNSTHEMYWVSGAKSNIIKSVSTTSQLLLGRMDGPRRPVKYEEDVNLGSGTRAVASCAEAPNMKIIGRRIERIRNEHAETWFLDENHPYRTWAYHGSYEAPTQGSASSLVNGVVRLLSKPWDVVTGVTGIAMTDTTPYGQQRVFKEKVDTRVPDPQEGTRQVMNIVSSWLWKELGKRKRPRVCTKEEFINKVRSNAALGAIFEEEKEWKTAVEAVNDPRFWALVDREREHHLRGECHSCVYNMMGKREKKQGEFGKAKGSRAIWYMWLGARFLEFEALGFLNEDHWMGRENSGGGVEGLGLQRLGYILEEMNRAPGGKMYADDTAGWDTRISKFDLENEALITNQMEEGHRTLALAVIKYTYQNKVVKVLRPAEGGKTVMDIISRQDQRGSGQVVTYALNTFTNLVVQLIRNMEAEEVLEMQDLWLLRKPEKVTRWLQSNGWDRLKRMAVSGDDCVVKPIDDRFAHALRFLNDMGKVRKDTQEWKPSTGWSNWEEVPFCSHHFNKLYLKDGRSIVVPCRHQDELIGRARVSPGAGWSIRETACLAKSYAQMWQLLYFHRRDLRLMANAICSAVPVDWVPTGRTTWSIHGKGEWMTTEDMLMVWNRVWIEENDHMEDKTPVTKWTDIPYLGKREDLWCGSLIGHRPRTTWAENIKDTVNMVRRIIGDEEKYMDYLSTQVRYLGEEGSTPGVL
Sequence of UniProt P11802 (whole entry, looked up): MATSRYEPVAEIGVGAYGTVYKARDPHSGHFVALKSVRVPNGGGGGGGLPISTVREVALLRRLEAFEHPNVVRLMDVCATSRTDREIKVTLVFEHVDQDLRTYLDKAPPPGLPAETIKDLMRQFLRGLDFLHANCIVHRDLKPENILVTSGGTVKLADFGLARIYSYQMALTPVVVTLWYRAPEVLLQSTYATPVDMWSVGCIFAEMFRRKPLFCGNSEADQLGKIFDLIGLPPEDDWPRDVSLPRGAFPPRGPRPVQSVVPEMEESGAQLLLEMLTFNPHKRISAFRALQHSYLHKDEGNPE
Sequence of UniProt P0DMS8 (whole entry, looked up): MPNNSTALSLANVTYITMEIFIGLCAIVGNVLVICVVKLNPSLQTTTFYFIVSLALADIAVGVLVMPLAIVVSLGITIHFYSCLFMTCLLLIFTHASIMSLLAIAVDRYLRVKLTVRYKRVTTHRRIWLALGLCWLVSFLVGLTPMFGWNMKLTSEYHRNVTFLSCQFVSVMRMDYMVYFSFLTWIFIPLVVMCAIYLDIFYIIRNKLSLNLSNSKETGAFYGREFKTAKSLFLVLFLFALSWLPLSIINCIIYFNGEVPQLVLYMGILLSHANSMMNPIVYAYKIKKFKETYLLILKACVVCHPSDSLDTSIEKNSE
Sequence of UniProt P21452 (whole entry, looked up): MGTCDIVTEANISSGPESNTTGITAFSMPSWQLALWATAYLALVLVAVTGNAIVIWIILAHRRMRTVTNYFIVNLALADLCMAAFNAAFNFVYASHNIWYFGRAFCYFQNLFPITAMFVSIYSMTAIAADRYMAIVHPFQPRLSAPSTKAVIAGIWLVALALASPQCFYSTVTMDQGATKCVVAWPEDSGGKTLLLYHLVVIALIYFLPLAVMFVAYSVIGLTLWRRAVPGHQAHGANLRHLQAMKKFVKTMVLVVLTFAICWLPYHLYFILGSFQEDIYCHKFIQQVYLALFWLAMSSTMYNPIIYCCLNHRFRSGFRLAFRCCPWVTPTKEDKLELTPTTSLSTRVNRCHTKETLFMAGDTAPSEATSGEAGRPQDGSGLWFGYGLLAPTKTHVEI

`CN(/N=C/c1ccccc1C(=O)O)c1nc(-c2ccccc2Cl)cs1` gave an inhibition of 0.7% (LYNb; enzyme activity; 1 µM).
The inhibition of `CCOC(=O)[C@](CC)(CCCSCCOCCOCCNC(=O)c1ccc(-c2c3ccc(=N)c(S(=O)(=O)O)c-3oc3c(S(=O)(=O)O)c(N)ccc23)c(C(=O)O)c1)NC(=O)c1ccc(C2CC2)c(Cc2ccc(F)cc2)n1` is reported as 77% (Adenosine receptor A3 (ADORA3, Homo sapiens, UniProt P0DMS8); ligand displacement, radioligand; 10 µM).
`CN[C@@H]1[C@H](O)[C@H](NC)[C@H]2O[C@]3(O)[C@H](O[C@@H]2[C@H]1O)O[C@H](C)C[C@H]3NC(=O)Cc1cc(Cl)ccn1` has an inhibition of 2% (Sigma non-opioid intracellular receptor 1 (SIGMAR1, Homo sapiens, UniProt Q99720); ligand displacement, radioligand; 10 µM).
The inhibition of `CC(C)[C@H]1NC(=O)C[C@H]2/C=C/CCSSC[C@@H](NC1=O)C(=O)N[C@H](Cc1cccc3ccccc13)C(=O)NCC(=O)O2` is reported as 14.6% (Cyclin-dependent kinase 4, with cyclin D3 (CDK4, Homo sapiens, UniProt P11802); enzyme activity, inhibitor; 10 µM).
With `C[n+]1cn([C@@H]2O[C@H](COP(=O)([O-])OP(=O)(O)O)[C@@H](O)[C@H]2O)c2nc(N)nc(O)c21` the inhibition was 13.1 ± 6% (mRNA decapping complex subunit 2, with Dcp1 (dcp2, Schizosaccharomyces pombe, UniProt O13828); 200 µM, 0.5 h).
`O=C1NC2(CC2)COc2ncc(F)cc2[C@H]2COCCN2c2ccn3ncc1c3n2` — result for “organ-to-brain weight ratio”: 3.65 ± 0.62% (Sprague-Dawley rat, female, adrenals; oral, 10 mg/kg/day, 4 weeks dosing, end of recovery).
With `CS(C)(=O)=Nc1ccc(-c2ccc(-c3nc4cc(O[C@@H]5CO[C@H]6[C@@H]5OC[C@H]6O)[nH]c4cc3F)cc2)cc1` the inhibition was 29% (KATP channel; binding, radioligand binding; 10 µM).
`CCc1nc2ccc(C(=O)NCCCN(C)C)cn2c1N(C)Cc1cccs1` gave an inhibition of 62.8% (ache; enzyme activity, inhibitor, Ellman; 5 µM).
With `O=[N+]([O-])c1cccc(Cn2cc(CCS(=O)(=O)F)nn2)c1` the inhibition was 43% (ache; enzyme activity, inhibitor, Ellman; 20 µM).
For `CN(C)[C@H]1C[C@@]23CC[C@@]4(O2)C(=CC[C@]2(C)[C@@H](c5ccc6ccncc6c5)CC[C@H]24)C=C3[C@@H](O)[C@@H]1O`, the inhibition was -5.3% (Cyclin-dependent kinase 16 (CDK16, Homo sapiens, UniProt Q00536); ATP probe labelling, inhibitor, KiNativ profiling; 0.1 µM).
`COc1ccccc1-c1n[nH]c2nc(NC3CCN(C(=O)Cc4ccc(F)cc4F)CC3)ncc12` has a relative abundance of 0.49 (bead binding, competition bead pull-down, measured: LINJ.25.1530; Leishmania donovani axenic amastigote extract; 10 µM; baseline: vehicle).
With `C[C@H](NCc1ccc(-c2ccc(C(F)(F)F)cc2)cc1)C(N)=O` the inhibition was 9% (GABAA receptor central benzodiazepine site, rat; binding, radioligand binding; biochemical; 1 µM, together with: [3H]flunitrazepam 1.0 nM).
`O=C(CCc1ccc(Br)cc1)N[C@H]1CCOC1=O` gave an inhibition of 4% (Transcriptional activator protein LasR (lasR, Pseudomonas aeruginosa, UniProt P25084); reporter gene, antagonist; Escherichia coli JLD271; 10 µM, pSC11 and pJN105L plasmids, together with: OdDHL 2 nM).
For `O=C1NC(=O)c2c1c1cc(F)c[n+]3c1c1c2c2cc(O)ccc2[n]1[Ru-4]312([N]=C=S)[S+]3CC[S+]1CC[S+]2CC3` (stereo not drawn), the remaining activity was 49% (Tyrosine-protein kinase Fgr (FGR, Homo sapiens, UniProt P09769); enzyme activity; 100 nM, human enzyme, together with: 10 µM ATP; baseline: untreated).
With `Nc1ccc(/C=C/C(=O)N2CCc3c(oc4c(-c5ccc(F)cc5)cc(-c5ccc(C(=O)N6CCC(F)(F)CC6)cn5)cc34)C2)cn1` the remaining binding was 100% (Receptor tyrosine-protein kinase erbB-2 (ERBB2, Homo sapiens, UniProt P04626); binding, competition with immobilised ligand; 1 µM).
`CC(C)(C)C(=O)OCOP(=O)(OCOC(=O)C(C)(C)C)C1CCCN(O)C1=O` (stereo not drawn) gave a GI50 of 487 nM (HOP-62).
`O=C(NC1CCN(c2ncnc3[nH]cnc23)CC1)c1cccc(NS(=O)(=O)c2ccc(C(F)(F)F)cc2)c1` has an inhibition of -1.8% (Genome polyprotein, NS5 methyltransferase domain (Zika virus, UniProt Q32ZE1); NS5 enzyme activity, inhibitor; 12.5 µM).
For `Cc1sc2c(c1C)C(c1ccc(Cl)cc1)=NC(CC(=O)OC(C)(C)C)c1nnc(C)n1-2` (stereo not drawn), the inhibition was 56% (Substance-K receptor (TACR2, Homo sapiens, UniProt P21452); ligand displacement, radioligand; 1 µM).
